Published values collected from several papers.
Every numbered part comes from another study and shows a few of its results, in no order.

Block 1
Target: PABPC1L2, full length, GST fusion (mouse, UniProt A0ABA7IW68)
Technique: RNAcompete
Molecule type: RNA
Matrix: in vitro
Tested at: 20 nM
Setting: 7-mer, probes averaged, single round
Relative to: mean of 7-mers
Reading: higher = stronger binding
Target sequence (chain): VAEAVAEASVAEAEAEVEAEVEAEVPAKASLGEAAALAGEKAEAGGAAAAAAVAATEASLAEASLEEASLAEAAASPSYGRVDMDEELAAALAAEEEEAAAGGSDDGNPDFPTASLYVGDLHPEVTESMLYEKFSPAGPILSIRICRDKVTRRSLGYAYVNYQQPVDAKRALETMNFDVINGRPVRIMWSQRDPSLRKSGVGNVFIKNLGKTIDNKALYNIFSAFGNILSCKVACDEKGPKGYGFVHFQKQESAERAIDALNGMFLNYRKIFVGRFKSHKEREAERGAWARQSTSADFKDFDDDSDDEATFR
Oligonucleotide	7-mer Z-score
CCGAUGA	-0.155
CCCCGGU	-0.421
CGAGACU	-0.0518
AGAGAAC	0.111
GGCCCGA	-0.0319
UUUUAGC	0.000733
UGACAGA	-0.00652
UUCUGUA	-0.304
CGCUAAA	0.566
GCGCUAU	-0.269
GCCAAUC	-0.271
GGAAGGC	0.274
UAGCCAC	-0.0681
CUCAGAC	-0.0446
AGCAUCU	-0.168
GCAUACU	-0.193
GCGCUCU	-0.173
AGUAAUC	-0.133
ACAGCUG	0.0243
UUUGCCG	-0.44
CCCUUGC	-0.483
AUUUCUC	-0.44

Block 2
Target: Interferon regulatory factor 3, full length, phosphomimetic (IRF3, Homo sapiens, UniProt Q14653, residues 1-427, S386D/S396D/S398D/S402D/T404D/S405D)
Chain of UniProt Q14653 (whole entry, unmodified, looked up): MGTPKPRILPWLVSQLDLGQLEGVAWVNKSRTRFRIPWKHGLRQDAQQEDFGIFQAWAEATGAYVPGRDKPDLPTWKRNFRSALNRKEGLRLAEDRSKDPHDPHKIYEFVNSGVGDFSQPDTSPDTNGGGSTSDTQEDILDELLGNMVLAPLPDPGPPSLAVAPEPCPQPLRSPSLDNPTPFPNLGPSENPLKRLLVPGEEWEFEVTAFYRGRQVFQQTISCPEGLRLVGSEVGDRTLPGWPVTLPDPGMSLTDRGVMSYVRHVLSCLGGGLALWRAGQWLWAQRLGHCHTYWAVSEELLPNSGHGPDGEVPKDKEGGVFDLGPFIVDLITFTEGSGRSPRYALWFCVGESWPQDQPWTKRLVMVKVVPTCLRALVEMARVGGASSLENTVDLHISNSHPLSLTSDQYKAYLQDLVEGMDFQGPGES
Technique: protein-binding microarray
Molecule type: double-stranded DNA, one strand shown
Matrix: in vitro
Tested at: 2540 nM top
Setting: 60-bp whole probe
With: salmon DNA 0.4 mg/ml
Relative to: random background probes
Reading: higher = stronger binding
Shared flanks, not repeated: GCCTAGCAC … GTCTTGATTCGCTTGACGCTGCTG
Oligonucleotide	fitted relative affinity
GCCGGTATCGACTATCGGGACGTGCTA	0.855 z-score
TCCATTTTCTAAATGCCCTAGTGCTAG	2.91 z-score
GACGAACTGGGGTTTCGAGTCGTGCTA	0.725 z-score
GAATGTTTTTCATTGTTTTTGTGCTAG	0.798 z-score
GCACGTGACTGTTTCCCAATGTGCTAG	3.12 z-score
ATTGCTTCCTCTTTCTCTGCGTGCTAG	1.82 z-score
GACGGTACCGGTTTCGGGACGTGCTAG	4.08 z-score
TCAGCTTTCTTTAACTCACTGTGCTAG	0.851 z-score
CTCCTTCAGTATCCTTAGATGTGCTAG	1.98 z-score
TTAGATTACAGTCTCGATTAGTGCTAG	0.791 z-score
TTAGATCTCGGACTGGATTAGTGCTAG	-0.217 z-score
TCAAGCAAAAATGATTGACTGTGCTAG	-0.736 z-score
TTAGATTTAAGTCTCGATTAGTGCTAG	-0.0604 z-score
GACAGTTTCGACTATCGGGACGTGCTA	2.77 z-score
GACGGTTTCGGGGCTGGGGACGTGCTA	3.1 z-score
GACGGTATTGGTATCGGGACGTGCTAG	1.5 z-score
TTAGAACGGAGTTTCGATTAGTGCTAG	2.72 z-score
TCATTATTAGTGACTCAGACTGTGCTA	0.279 z-score
TCACGTCTCCACCTGGGACTGTGCTAG	0.203 z-score

Block 3
Target: Histone acetyltransferase KAT6A, winged helix 2, GST fusion (KAT6A, Homo sapiens, UniProt Q92794, residues 85-181)
Technique: protein binding microarray
Molecule type: double-stranded DNA, one strand shown
Matrix: in vitro
Tested at: not given
Setting: 8-mer, flanks averaged, mean of 2 arrays, mostly near background
Relative to: not given
Reading: higher = stronger binding
Construct (chain): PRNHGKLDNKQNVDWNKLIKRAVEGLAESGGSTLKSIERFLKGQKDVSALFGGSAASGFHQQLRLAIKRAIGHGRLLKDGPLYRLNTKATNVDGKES
Oligonucleotide	E-score
GCCAATGA	-0.181
AGAAACTC	0.139
AAGTGGCC	-0.088
ACCTACTG	-0.125
AATTGATC	0.0469
GAACAAAC	0.106
CAGGGCGG	0.198
ACACTGGG	-0.115
TCCTACAA	0.164
CATTGCGA	-0.0333
CGCTGCCG	0.131
AGAGAATC	0.0713
GGGTGTAC	-0.176
GAACCGTC	-0.0983
TATGGTCA	-0.00078
CGCGTCTA	-0.0155
ACCTGTTG	-0.00958
AGGGTACG	-0.0131
AGAAGAAG	0.0241
CGATGCGC	0.24
AAGACCAG	0.000655

Block 4
Target: RNA binding protein fox-1 homolog 2, RRM domain, GST-SBP tag (RBFOX2, Homo sapiens, UniProt O43251-10, residues 100-194)
Technique: RNA Bind-n-Seq
Molecule type: RNA
Matrix: in vitro
Tested at: 365 nM
Setting: natural RNA segment, single round, ends assumed
Relative to: no-protein control
Reading: higher = stronger binding
Oligonucleotide	RBNS enrichment (R)
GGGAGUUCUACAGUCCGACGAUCGAAUGUGUUUGAACAUGUUUUGAGAUUUUUUUAAAAUAAAUUAUUAUUUGACAACAAUCCAAAAAAAUACGGCUUUUCCAAUGAUGAAAUAUAAUCAGAAGAUGAAAAAUUGGAAUUCUCGGGUGCCAA	0.677
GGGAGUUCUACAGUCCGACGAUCUUGGGCCUGUACACUCCAGCUCUAAGGGCCAGUAGUUUGAAGCCCUAUAAGUGGUGCCCAGUGUUCAUGGGGUCUGGUCUUUGACCGGCCUCUGGUGCCCACUUUUGUCUUGGAAUUCUCGGGUGCCAA	0.57
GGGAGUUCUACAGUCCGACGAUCAUGUUUGUCUUGUUUUGUUCAUUUGGCCAGUAAGGAAUGUCCCUGGGCUUUGAGUUUCCAGAAAGAGAUGGAAUAAUGGAGACUUUCUUUCCCUGGGGACCAGUGUCAGUUGGAAUUCUCGGGUGCCAA	11.1
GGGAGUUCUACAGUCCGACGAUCGUGGACAGCUUUUCCGUGGAAAUUCAAGGCAUCUGUAUUAGGCAAAUGUGAGUGCCCUUGAUCUUGUAUUGAUCAGUGCCAAUGUACUGGGAAAGCAGGUACCCCAGUGAUGGAAUUCUCGGGUGCCAA	1.15
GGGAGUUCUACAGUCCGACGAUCGUGAUUGUACCAAGGAACUUAGCCUCAUGUAGCAUGUACAGGGUUGUAAUGGUGACCCAGCAGCGAGCUCUCUCCCAGUAAUUUGUUCCGCAUGUGUAGUCUCCCCUCGCUGGAAUUCUCGGGUGCCAA	40
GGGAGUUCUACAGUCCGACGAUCUGUCUCCCUGGGCAAGGGAAGGGGACCAGGAGAAAGGUGAUGAGGCCCCAGGGACUCCUGUCAUCUGGUACUCUCCCUCUUACAGAGGAGAGAGCUAGUGGCUUAAAAGGUGGAAUUCUCGGGUGCCAA	0.654
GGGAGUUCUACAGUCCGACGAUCCUCCACUAACCUUUUCUCUCCAACUGUAAACACAGAGACAGCUUUGGGAAUAAGCCAAAAACAGGGUGAUCUCAUUAGAUUUUGAAGAUAUAUGACUCCUUUGGGCUACAUGGAAUUCUCGGGUGCCAA	0.462
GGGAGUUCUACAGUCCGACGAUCACCAUUGUGUAGGGGGCUGUGUCUGAUCUUGGUGUUCAAAACAGAACUGUAUUUUUGCCUUUAAAAUUAAAUAAUAUAACGUGAAUAAAUGACCCUAUCUUUGUAACUGCUGGAAUUCUCGGGUGCCAA	0.505

Block 5
Target: Protein C-ets-1 (ETS1, Homo sapiens, UniProt P14921, residues 1-441, full length assumed)
Technique: protein-binding microarray
Molecule type: double-stranded DNA, one strand shown
Matrix: in vitro
Tested at: not given
Setting: k-mer, scored over probes, only values ≥0.25
Reading: higher = stronger binding
Residues (chain): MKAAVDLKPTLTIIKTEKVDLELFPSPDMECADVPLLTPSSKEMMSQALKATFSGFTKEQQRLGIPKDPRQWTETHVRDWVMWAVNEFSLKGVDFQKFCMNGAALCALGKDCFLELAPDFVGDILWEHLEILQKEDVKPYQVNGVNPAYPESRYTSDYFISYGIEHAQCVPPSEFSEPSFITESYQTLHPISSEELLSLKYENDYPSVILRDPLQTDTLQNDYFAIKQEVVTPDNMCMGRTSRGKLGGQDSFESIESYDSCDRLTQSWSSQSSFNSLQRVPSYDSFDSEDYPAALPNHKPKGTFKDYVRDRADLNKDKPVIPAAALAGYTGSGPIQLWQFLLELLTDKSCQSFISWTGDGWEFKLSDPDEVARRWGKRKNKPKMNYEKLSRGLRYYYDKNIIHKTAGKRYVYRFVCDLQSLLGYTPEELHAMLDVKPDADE
Oligonucleotide	E-score
CGGAAGAG	0.447
AGGATGCC	0.372
ACTTCCCA	0.397
AACGGAAA	0.458
CCGGATCA	0.369
GAAAGGTC	0.252
AGGACGTG	0.295
CTGTATCC	0.365
ACCGGGGG	0.33
CGCCGGCG	0.327
AAACTTCC	0.459
TCGCGGAA	0.334
GCCCCGCC	0.261
ACCTTCCG	0.444
CTAACTTC	0.255
ATCCCCGG	0.286
AGTATCCG	0.448
CCTCCTCC	0.298
GGATATTA	0.316
CAGGACGA	0.282
CGGAGGTA	0.272
